Assay results gathered from unrelated publications.
Parts stem from different laboratories: compare values within a part only.

Sample 1 — method: protein binding microarray; molecule type: double-stranded DNA, one strand shown; matrix: in vitro; tested at: not given; relative to: not given; reading: higher = stronger binding
Target: Histone acetyltransferase KAT6A, both winged helices, GST fusion (KAT6A, Homo sapiens, UniProt Q92794, residues 1-181)
Notes: 8-mer, flanks averaged, mean of 2 arrays, mostly near background
Target sequence (chain): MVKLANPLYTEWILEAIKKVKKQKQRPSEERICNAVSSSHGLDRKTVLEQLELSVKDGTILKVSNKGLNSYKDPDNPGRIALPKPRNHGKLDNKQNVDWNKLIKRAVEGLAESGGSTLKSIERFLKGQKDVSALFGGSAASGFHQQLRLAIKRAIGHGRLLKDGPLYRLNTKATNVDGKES
| Strand | E-score |
| --- | --- |
| CACACGCA | 0.0302 |
| ACAGATCT | -0.146 |
| CCTGTGTA | -0.0244 |
| CAGAAATG | -0.0486 |
| CTTACTAA | -0.131 |
| AGGAAAGA | -0.221 |
| ACCTAAAT | -0.0613 |
| AACAGATT | -0.115 |
| GTCTTTCA | -0.0121 |
| CCCCCCCG | -0.0518 |
| CCCATGGG | -0.342 |
| CTCTATAC | 0.0253 |
| AGGCAGCG | 0.0518 |
| AAGCAGCA | -0.179 |
| ATAGAAGA | 0.0252 |
| ACCTGTGC | -0.0689 |
| AATGAGAA | -0.0102 |
| ATCGGCAG | 0.164 |
| CGGAGCCA | 0.0423 |
| ACACTCAC | -0.0667 |

Sample 2 — method: RNA Bind-n-Seq; molecule type: RNA; matrix: in vitro; tested at: not given; notes: RNA with constant flanks, ends assumed; relative to: input RNA pool; reading: higher = stronger binding
Target: RING finger protein unkempt homolog, zinc fingers 1-6, GST-SBP tag (UNK, Homo sapiens, UniProt Q9C0B0, residues 30-357)
Construct (chain): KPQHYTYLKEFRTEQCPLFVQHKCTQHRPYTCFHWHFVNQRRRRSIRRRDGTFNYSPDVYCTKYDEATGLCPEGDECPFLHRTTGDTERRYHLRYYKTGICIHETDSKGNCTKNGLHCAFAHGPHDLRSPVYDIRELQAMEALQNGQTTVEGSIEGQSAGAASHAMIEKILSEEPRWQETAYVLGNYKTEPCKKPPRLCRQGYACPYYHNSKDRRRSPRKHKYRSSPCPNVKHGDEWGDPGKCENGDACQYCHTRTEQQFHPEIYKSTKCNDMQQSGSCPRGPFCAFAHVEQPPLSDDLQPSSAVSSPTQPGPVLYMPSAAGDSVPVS
| Strand | bound/input enrichment [ratio] |
| --- | --- |
| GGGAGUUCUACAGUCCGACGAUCCUUGAACCUAACAAGUCCAUCUUCAAGCAAAUGAAAACUCAUCCACCAUACACCAUGUGCUUCCGAGUGAAAUUCUACCCACAUGAACCCUUGAAGAUUAAAGAAGAGCUCACAAGAUACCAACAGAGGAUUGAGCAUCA | 0.134 |
| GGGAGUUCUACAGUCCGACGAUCCAUUCGAAGGUUAAUGAUGAUUGUGAUGUUUAGGAAUGUUUGUCUCAGCCACAGUUCCUUCACCGCUUUUCCAAAAUGAAUUGGGAAAAAAAAAUCGUAUAGCAGUCUUAAAGCUUAGUACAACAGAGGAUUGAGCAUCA | 0.701 |
| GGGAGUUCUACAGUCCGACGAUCACCGUGCCCUAGAAUUUGCCCCUGCCUGCCAUCGCUUCAAAAUCCUCAAGGCAGAAUGUUCCGCAAUGCUGGGUCGUUAUCCAGAAGCACAGUCUGUGGCUAGUGACAUUCUACGAAUGGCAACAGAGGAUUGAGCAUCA | 0.346 |
| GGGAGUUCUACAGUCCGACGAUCCUCUUCUUAAAUUCUACUGCAGGAACAAGUGGGGGUGCUUACGAUCACAGCUAUGCCGAACUUUUUUUGAAUUCUACAGCAGGGGCAAGUGGUGGCGCUUAUGGUAGCCAAAUGAUGGGACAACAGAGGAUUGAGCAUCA | 0.697 |
| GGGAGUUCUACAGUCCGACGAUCAUGAGAAACAGUAUCUUAGCCCAAGUUCUGGAUCAGUCAGCCCGGGCCAGAUUAAGUAACUCCGCACUUGUAAAGCCUGAAAAAACUAAAGCAGUGGAGAACUACCUUAUACAGAUGGCGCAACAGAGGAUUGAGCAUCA | 0.189 |
| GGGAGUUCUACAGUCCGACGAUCAAAUUUAAGUUUUCUUGUAUUGAAAAUAACCUAUGAUUGUAUGUUUUGCAUUCCUAGAAGCCGGUUAACUGUGUUUUUAAAUUGUUAUAACUUCACACCUUUUUGAAAUCUGCCCUACAACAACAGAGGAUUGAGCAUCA | 0.286 |
| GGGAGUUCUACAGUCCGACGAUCAUCACUUUGACCCAGAUUGUGUGACAUACACCUGAGAGGAAUUGAGGGAGUAUUGGUGUCCCGGUUGUCAUGUUUCUGUUUUGUGACACAGUGGAUGGAAAGGUUUGUCCUCUUCCUACUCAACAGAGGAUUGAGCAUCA | 0.115 |
| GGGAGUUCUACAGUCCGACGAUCAAAAGAGCUAAUCCUCAAGUCGGCGUGGCUUUUCCUCAUAUCAAGCAUAACUAUGAGUGUUCCGUGUAUGUGCAGCUGCCUUUCAUGGAAGACUUGCGGCAAUACAUGUUUUCAUCCUUGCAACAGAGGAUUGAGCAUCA | 0.0377 |
| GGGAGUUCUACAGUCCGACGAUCCGGUGAUGUCCUUACUGUCCCCAGCCAGGGCCGGGGACCGGUGUUUCACUGAGGACCUGCAUCCGAAACAUUUUUUAAAUUGUUGUACAGGAAGAGAUGUGUCUAAAACAGCAUCUUAAACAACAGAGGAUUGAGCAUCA | 0.176 |
| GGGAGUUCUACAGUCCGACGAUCUAUGAAGUGUAUAGUUCCUCAGCAGGACCUGCGGUCAGACAUAAGUGCCUUAGAGCAAUUCUCCGGAUAAUUUAUUUUGCGGAUGCUGAACUUCUGAAGGAUGUUCUGAAAAAUCAUGCUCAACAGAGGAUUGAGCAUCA | 0.472 |
| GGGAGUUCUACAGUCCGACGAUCUUUGGUGCACAAAAUCCUUCUGUGGGCAAAACUUUGUUUUUGUUUUGCACAGUAAGAAACAACCGGCAAGCGUUAUGUUUUUGGUAAGUUAACUAUGAAAGCUUUCUUAUUUUUAUUAUUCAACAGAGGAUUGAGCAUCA | 0.69 |

Sample 3 — method: RNA Bind-n-Seq; molecule type: RNA; matrix: in vitro; tested at: 365 nM; relative to: no-protein control; reading: higher = stronger binding
Target: RNA binding protein fox-1 homolog 2, RRM domain, GST-SBP tag (RBFOX2, Homo sapiens, UniProt O43251-10, residues 100-194)
Notes: natural RNA segment, single round, ends assumed
Construct (chain): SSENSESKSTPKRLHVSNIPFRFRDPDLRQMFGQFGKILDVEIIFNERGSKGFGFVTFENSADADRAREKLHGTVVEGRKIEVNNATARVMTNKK
| Strand | RBNS enrichment (R) |
| --- | --- |
| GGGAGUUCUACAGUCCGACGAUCUCUGGAAUUAUCUACUAUCCCAAUCCACUACCCUCACCUGGCAAUAUUUGUCUGUUUUUGUUUGUUUGUUUGUUUGUUUUUGUCUUUUGCCAGUUUGAAUUAGAAGGCAAUGGAAUUCUCGGGUGCCAA | 18.1 |
| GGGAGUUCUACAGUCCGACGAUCUUCAAGGCUCUCCUAUAGGGAGAAACAUGGCCAAAAAGACAGGAAGAACUGUGGCUUGUAACUCAAUGAUGCUAUAACUCCAGCACUGGAUCUUAAGUAUUCUGGAAUAUUGGAAUUCUCGGGUGCCAA | 0.793 |
| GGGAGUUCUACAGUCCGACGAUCUAAUAUAUUGUAAUCACAUUCCUUAGGAGGACUUUGGUAAUUGGUUUUAUGCAUUGAUGGUUUUUUUUUUCUUUUUUGCCAAAUUGACUGUCACGCGGCAGCUUCAGGGAUGGAAUUCUCGGGUGCCAA | 0.838 |
| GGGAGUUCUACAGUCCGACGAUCUAAGACUUAUUGAUCUGUGUGUAUCCCAGUGUUCCUCUGGGGUUCUGUCUAAACACCAACCAUCUUCUCUUGGAAUGGGCCCCAGGCAAGGCUUGCAGCAAUAUAGCCUGUGGAAUUCUCGGGUGCCAA | 0.446 |
| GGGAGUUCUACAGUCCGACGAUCCUGACAUGUAACCGUUUUCAGGGAAUGCAGAGGGUGUUAACUAAUAGACAAAACCUUUAUCCCGCGUGCUUUGCUUCACCUUGUGCUAUAUAGCUCUUUGGCUCGUGAACUGGAAUUCUCGGGUGCCAA | 0.301 |
| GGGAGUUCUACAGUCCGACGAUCGGAGAAUUGAGACUUGGAAAAGGCUUGGGUACAAUUAAGAAAAACCCUACAUCCCACCCUCCUCUUGACGCGUUUCUGGUGGUUUCGGUUUCUGCGUUGCCCUCCAGAUCUGGAAUUCUCGGGUGCCAA | 0.235 |
| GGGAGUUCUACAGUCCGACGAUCAUUUGGGAAAGUUGGGCUAUAUGUUUGCAGGGACUUAAAAAGGUAGGUUCAGAACAGUAUUCUCAGUACAAGCUUCGCUUUUCUAAGAAGUACACAUUUGGCCCAAAUUCUGGAAUUCUCGGGUGCCAA | 0.542 |
| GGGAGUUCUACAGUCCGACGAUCACUUCCUUCCCAAAGAAAAUAGAUCCUCCAUGCAGGAUCUAGGAGAGUGACUGGGUGUGCCAAAAUAUGCCCAGGGUCCUGCCCUCAGCACUAGAUUUAAUGGGGCCAAGUGGAAUUCUCGGGUGCCAA | 0.416 |
| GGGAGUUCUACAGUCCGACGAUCUGCUGGUAUGAUGGACCAGGCAGGCCAGGCAGACGGGAGGAGGGCUGGGAACAAGAGCAGCCCACUCUGCAGGAAUGCAACCUGAGCUGCAAACCAGGAGAAAAGGAGACUGGAAUUCUCGGGUGCCAA | 0.928 |
| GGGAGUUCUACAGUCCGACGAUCAAACAGUUGCAUCUGUAGAUUAAGAUGCUUUACAUUAGACCGUUGUGUCUCGAUGUAUAUCUGUAUAUAUUAUUUGAUAAUCAGAAAAUCUAUAGAGUUCACACACACACUGGAAUUCUCGGGUGCCAA | 0.356 |
| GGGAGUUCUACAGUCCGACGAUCAAAAAAAGCAUCUAGGAUAAAUAUAAAAAUUUCAUCAUGUCUGAGUGGUUGCUCUGCUAAAAUAAGGGGCAUUUAAAAGCCAAAUGUAACCAUGGGAUUCAGAAGAGCACUGGAAUUCUCGGGUGCCAA | 0.776 |
| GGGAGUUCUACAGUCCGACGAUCCACUGAGAUCCAGAGAGGCUGGAUGACUUGCUCAAGUUCACCAGCAUGGUAGUGGCAAAGAGAGGUCCAGAGUCCUGGCCCUUGAUGCCCAGCUCAGUGCCACAAAGCUCUGGAAUUCUCGGGUGCCAA | 1.85 |

Sample 4 — method: protein-binding microarray; molecule type: double-stranded DNA, one strand shown; matrix: in vitro; tested at: 940 nM top; notes: 60-bp whole probe; added: salmon DNA 0.4 mg/ml; relative to: random background probes; reading: higher = stronger binding; constant ends, left off below: GCCTAGCAC … GTCTTGATTCGCTTGACGCTGCTG
Target: Interferon regulatory factor 5, full length, phosphomimetic (IRF5, Homo sapiens, UniProt Q13568-2, residues 1-514, S451D/S453D/S456D/S462D)
| Strand | fitted relative affinity |
| --- | --- |
| TCAAATCTCTCTTCACAACTGTGCTAG | 1.13 z-score |
| GACGGGTTCGGGACTGGGGACGTGCTA | -0.254 z-score |
| ATAGGTTTCGACACTGGGTTAGTGCTA | 7.01 z-score |
| TTAGATCTGAGACTGGATTAGTGCTAG | -0.193 z-score |
| CTGCTGGCCTGTTGCTGGAAGTGCTAG | -0.522 z-score |
| GACGGTATCGGTCTCGAGACGTGCTAG | 8.6 z-score |
| TTAAGTATCGGGTTTCGGTTAGTGCTA | 8.04 z-score |
| TTGCCTCACCTCACCTGTCCGTGCTAG | 0.373 z-score |
| CGCTCCCTTTATTCCACATTGTGCTAG | 1.14 z-score |
| CTGTACTTGAATTCTGCAAAGTGCTAG | -0.127 z-score |
| TCATAACTCATTCTCTGACTGTGCTAG | 0.669 z-score |
| TTAGAGCTCAGACTGGATTAGTGCTAG | -0.602 z-score |
| ATAGGTTTCGGTCTCGGTTAGTGCTAG | 14.3 z-score |
| TTAGATTTCGGGACTGGATTGGTGCTA | 0.513 z-score |
| TTAGTTTTCAGTATCGATTAGTGCTAG | 6.78 z-score |
| GACGGTTTCCTTTCCTTGACGTGCTAG | 1.77 z-score |
| TTAGGACTGGGGTATCGTTTAGTGCTA | 1.29 z-score |
| AGAAACTTGTGTTTGTCCCTGTGCTAG | 1.94 z-score |
